Published values of several laboratories.
Lines come from different studies, so protocols differ.
PFF0160c E182D: Dihydroorotate dehydrogenase (quinone), mitochondrial (PFF0160c, Plasmodium falciparum, UniProt Q08210, E182D)
UniProt Q9UEE5, sequence (whole entry, looked up): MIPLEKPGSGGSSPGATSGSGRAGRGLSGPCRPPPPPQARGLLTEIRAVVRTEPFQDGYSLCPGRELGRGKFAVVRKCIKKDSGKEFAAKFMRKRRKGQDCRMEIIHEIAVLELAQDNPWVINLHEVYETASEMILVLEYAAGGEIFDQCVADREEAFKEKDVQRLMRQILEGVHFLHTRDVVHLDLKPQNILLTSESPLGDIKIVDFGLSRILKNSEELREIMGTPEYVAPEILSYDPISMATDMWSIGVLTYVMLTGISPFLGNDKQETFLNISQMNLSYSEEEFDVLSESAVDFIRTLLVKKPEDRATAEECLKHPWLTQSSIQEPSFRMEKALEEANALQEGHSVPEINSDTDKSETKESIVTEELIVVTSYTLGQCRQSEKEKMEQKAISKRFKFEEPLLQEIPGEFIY
UniProt Q15569, sequence (whole entry, looked up): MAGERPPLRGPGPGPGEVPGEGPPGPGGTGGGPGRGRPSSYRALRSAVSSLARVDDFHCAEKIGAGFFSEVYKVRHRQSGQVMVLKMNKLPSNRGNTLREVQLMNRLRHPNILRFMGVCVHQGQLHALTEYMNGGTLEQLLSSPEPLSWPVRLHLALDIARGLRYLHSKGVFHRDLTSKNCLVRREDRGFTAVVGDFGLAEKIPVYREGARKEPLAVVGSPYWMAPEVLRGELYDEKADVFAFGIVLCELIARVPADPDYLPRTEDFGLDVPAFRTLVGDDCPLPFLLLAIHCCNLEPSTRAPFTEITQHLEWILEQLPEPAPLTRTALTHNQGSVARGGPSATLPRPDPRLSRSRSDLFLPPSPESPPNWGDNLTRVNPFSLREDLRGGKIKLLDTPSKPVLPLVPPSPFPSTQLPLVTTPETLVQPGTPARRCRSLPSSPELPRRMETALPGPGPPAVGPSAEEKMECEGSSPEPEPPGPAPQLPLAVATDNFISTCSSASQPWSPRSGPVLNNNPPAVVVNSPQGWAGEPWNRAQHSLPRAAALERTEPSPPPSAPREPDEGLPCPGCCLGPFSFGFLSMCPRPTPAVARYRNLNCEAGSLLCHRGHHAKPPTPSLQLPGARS
UniProt P57058, sequence (whole entry, looked up): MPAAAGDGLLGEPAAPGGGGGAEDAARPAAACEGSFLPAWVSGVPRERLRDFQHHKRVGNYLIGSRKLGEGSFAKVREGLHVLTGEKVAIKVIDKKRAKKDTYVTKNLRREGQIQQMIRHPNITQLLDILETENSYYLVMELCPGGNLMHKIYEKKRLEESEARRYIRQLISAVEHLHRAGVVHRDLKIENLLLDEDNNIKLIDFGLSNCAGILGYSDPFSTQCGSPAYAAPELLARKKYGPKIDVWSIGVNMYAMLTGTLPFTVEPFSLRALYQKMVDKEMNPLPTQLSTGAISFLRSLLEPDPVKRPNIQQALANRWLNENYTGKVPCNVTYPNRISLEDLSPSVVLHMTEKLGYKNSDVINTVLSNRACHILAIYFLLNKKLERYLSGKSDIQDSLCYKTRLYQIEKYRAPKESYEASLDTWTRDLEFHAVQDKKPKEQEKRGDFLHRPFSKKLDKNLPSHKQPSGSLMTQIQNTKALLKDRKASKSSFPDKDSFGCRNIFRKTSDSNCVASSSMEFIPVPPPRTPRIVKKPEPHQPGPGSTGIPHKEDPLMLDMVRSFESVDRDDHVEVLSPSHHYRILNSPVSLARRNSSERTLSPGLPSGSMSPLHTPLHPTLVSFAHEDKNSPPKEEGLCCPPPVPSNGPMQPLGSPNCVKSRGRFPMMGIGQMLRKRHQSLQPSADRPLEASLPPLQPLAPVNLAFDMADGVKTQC

The IC50 of `Cc1cc(OC(C)C(=O)N2CCc3ccccc32)ccc1Cl` (stereo not shown) is reported as 62.1 nM (PFF0160c E182D; enzyme activity, inhibitor, absorbance).
`Nc1c2c(nc3c1C(c1ccc(Cl)c(Cl)c1)c1ccc(OCC(=O)c4ccccc4)cc1O3)CCCC2` (stereo not shown) has a viability of 80.7% (SH-SY5Y; cell growth or viability, MTT; 0.4 µM).
The CC50 of `CCN(CC)CCCC(C)Nc1ccnc2cc(Cl)ccc12` (stereo not shown) is reported as over 100000 nM (HEK-293T; cell growth or viability, CCK-8; 48 h).
With `CCOC(=O)c1c(NC(=O)CNC(C)C)sc2c1CCCCC2` the concentration was 177 ng/g (male mouse, brain; intraperitoneal, 5 mg/kg, 1 h).
For `O=c1c(Br)c(C(F)(F)F)[nH]c2ccc(Oc3ccccc3)cc12`, the IC50 was over 10000 nM (PFF0160c E182D; enzyme activity, inhibitor, absorbance).
For `COc1ccc(S(=O)(=O)Oc2ccc3c(c2)Oc2nc4c(c(N)c2C3c2cccc(OC)c2)CCCC4)cc1` (stereo not shown), the viability was 72.9% (SH-SY5Y; cell growth or viability, MTT; 6.3 µM).
`CC(C)C[C@H](NC(=O)[C@H](Cc1ccccc1)NC(=O)[C@H](Cc1ccccc1)NC(=O)Cc1ccc(-c2ccccc2)cc1)C(=O)N[C@@H](CCCCN)C(=O)N[C@@H](CCCNC(=N)N)C(=O)N[C@H](C(=O)N[C@@H](Cc1c[nH]c2ccccc12)C(=O)N[C@@H](CCCCN)C(=O)N[C@@H](CCCNC(=N)N)C(=O)O)C(C)C` gave a compound remaining of 46.7% (metabolic stability; dog, liver microsomes; 45 min).
For `C/C=C1/CN2CC[C@@]34c5ccccc5N(C)[C@]35OC[C@@]4(C(=O)OC)[C@H]1C[C@H]25`, the Papp B→A was 24.5 ×10⁻⁶ cm/s (Caco-2; pH 7.4).
The remaining binding of `Cc1nn(C)cc1-c1nc2c(N3CCN(Cc4ccc(Cl)cc4)CC3)c(Cl)cnc2[nH]1` is reported as 66% (Hormonally up-regulated neu tumor-associated kinase (HUNK, Homo sapiens, UniProt P57058); binding, competition with immobilised ligand; 1 µM).
For `Nc1c2c(nc3c1C(c1cccc([N+](=O)[O-])c1)c1ccc(OS(=O)(=O)c4ccc(F)cc4)cc1O3)CCCC2` (stereo not shown), the viability was 79% (SH-SY5Y; cell growth or viability, MTT; 1.6 µM).
`COCC1=N[C@@]2(O)[C@H](C(=O)N(C)OC)[C@@H](c3ccccc3)[C@]3(c4ccc(OC)cc4)Oc4cc(OC)cc(OC)c4[C@]23N1` gave a microsomal CLint of 18.6 µL/min/mg (metabolic stability; male Sprague-Dawley rat, liver microsomes; 1 µM, pH 7.4).
`Nc1ncc(-c2nc(N3CCOCC3)nc(N3CCOCC3)n2)c(C(F)F)n1` gave a remaining binding of 72% (Dual specificity testis-specific protein kinase 1 (TESK1, Homo sapiens, UniProt Q15569); binding, competition with immobilised ligand; 10 µM).
For `C[N+]1=C2C=C(N/C=C/c3ccc(O)cc3)C(=O)c3[nH]cc(c32)CC1`, the CC50 was 5000 nM (HEK293; cell growth or viability, MTT; 72 h).
`Nc1c2c(nc3c1C(c1cccc([N+](=O)[O-])c1)c1ccc(OCC(=O)c4ccc(Cl)cc4)cc1O3)CCCC2` (stereo not shown) has a viability of 40.6% (SH-SY5Y; cell growth or viability, MTT; 100 µM).
`Cc1ncc2n1-c1ccc(Cl)cc1C(c1ccccc1F)=NC2` has a fraction unbound of 1 (Sprague-Dawley rat, hepatocytes; 2 µM, 4 h, pH 7.4).
`C[C@]12CC[C@H]3[C@@H](CC=C4CC(O)CC[C@@]43CO)[C@@H]1CCC2O` (stereo partly shown) has a half-life of 7.8 min (rat, plasma; intravenous, 1 mg/kg).
With `[2H]c1c([2H])c([C@]2([2H])CCCN2C(=O)C(C)(C)Oc2ccc3cn[nH]c3c2)c([2H])c([2H])c1C([2H])([2H])[2H]` the remaining binding was 71% (Serine/threonine-protein kinase 17A (STK17A, Homo sapiens, UniProt Q9UEE5); binding, competition with immobilised ligand; 1 µM).
For `N.N.[Cl][Pt][Cl]`, the IC50 was 890 nM (MOLT-4; cell growth or viability, ATP luminescence; 72 h).
`[18FH]` gave a tracer uptake of 0.32 %ID/g (mouse, muscle; intravenous, 1 h).

Some of these lines once more:
The remaining binding of `Cc1nn(C)cc1-c1nc2c(N3CCN(Cc4ccc(Cl)cc4)CC3)c(Cl)cnc2[nH]1` is reported as 66% (Hormonally up-regulated neu tumor-associated kinase (HUNK, Homo sapiens, UniProt P57058); binding, competition with immobilised ligand; 1 µM).
`Nc1c2c(nc3c1C(c1ccc(Cl)c(Cl)c1)c1ccc(OCC(=O)c4ccccc4)cc1O3)CCCC2` (stereo not shown) has a viability of 80.7% (SH-SY5Y; cell growth or viability, MTT; 0.4 µM).
With `CCOC(=O)c1c(NC(=O)CNC(C)C)sc2c1CCCCC2` the concentration was 177 ng/g (male mouse, brain; intraperitoneal, 5 mg/kg, 1 h).
